Assay results collected from several papers.
Every numbered part comes from another study and shows a few of its results, in no order. Positions count from the first letter of the parent shown.

Block 1
Target: CCNB3, cyclin fold, Cln2 fusion (human)
Technique: yeast growth competition, sequencing
Matrix: yeast
Setting: strong parent motif
Reference: not given
Reading: higher = stronger binding
Endpoint: normalised enrichment score
Starting sequence: PKN2 docking peptide (human); VSAVRKLDFSDTM; partner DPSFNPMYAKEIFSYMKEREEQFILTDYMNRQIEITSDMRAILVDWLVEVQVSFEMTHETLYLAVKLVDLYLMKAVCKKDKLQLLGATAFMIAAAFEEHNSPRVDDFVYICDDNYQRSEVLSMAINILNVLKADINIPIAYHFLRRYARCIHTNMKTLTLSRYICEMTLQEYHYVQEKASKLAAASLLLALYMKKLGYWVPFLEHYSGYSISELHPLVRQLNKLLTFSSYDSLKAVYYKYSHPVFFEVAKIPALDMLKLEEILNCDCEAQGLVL
A3I: 1.73
S10G: 2.14
T12R: 1.59
A3S: 0.42
D11A: 2.22
K6R: 1.5
D8V: 1.1
T12C: 2.14
D8A: 0.574
K6T: 1.59
S10W: 0.595
R5S: 0.0305
D8P: 0.271

Block 2
Target: Histone acetyltransferase KAT6A, both winged helices, GST fusion (KAT6A, Homo sapiens, UniProt Q92794, residues 1-181)
Technique: protein binding microarray
Molecule type: double-stranded DNA, one strand shown
Matrix: in vitro
Concentration: not given
Setting: 8-mer, flanks averaged, mean of 2 arrays, mostly near background
Reference: not given
Reading: higher = stronger binding
Endpoint: E-score
Residues (chain): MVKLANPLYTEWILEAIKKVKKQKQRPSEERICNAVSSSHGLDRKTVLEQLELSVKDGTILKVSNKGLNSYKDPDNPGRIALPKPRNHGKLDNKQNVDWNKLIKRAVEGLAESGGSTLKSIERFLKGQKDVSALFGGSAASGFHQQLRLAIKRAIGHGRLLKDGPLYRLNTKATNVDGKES
CGATTTAA: -0.103
TCAATCGA: 0.0452
AGAGAGGA: -0.179
CAATTAAA: -0.112
CTTGTCCA: -0.115
GCTGGTCC: 0.018
AGAACTTA: 0.0514
CCGCTCAG: 0.23
CCTGACTA: -0.1
TCTGGTCA: -0.224
AACGAAAA: -0.00543
GGTTAGTA: 0.0169
ATTTTAGA: -0.0172
AGACCGTC: 0.156
AGGGTAAA: -0.203
AGCGGAAA: 0.205
AGGCGAGC: -0.0833
AAACGCAA: 0.0853
CGGAGACG: 0.293
GCTAACCC: 0.0547
AGGTTAAC: 0.0674

Block 3
Target: Ras GTPase-activating protein-binding protein 1, RRM domain (G3BP1, Homo sapiens, UniProt Q13283)
UniProt Q13283, sequence (whole entry, looked up): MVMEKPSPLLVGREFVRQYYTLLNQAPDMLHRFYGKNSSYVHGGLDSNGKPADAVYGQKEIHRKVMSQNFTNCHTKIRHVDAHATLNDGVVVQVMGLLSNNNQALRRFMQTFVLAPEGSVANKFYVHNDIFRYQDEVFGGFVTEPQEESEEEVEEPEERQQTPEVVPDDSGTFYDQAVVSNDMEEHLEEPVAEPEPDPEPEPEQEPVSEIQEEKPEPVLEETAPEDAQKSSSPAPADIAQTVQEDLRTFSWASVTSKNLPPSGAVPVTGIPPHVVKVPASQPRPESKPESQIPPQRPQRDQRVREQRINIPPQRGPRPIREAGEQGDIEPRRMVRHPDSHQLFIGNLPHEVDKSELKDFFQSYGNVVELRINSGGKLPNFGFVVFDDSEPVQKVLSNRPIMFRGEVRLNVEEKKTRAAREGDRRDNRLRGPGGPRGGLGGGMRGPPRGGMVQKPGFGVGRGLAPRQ
Technique: RNA Bind-n-Seq
Molecule type: RNA
Matrix: in vitro
Concentration: 1 µM
Setting: whole 134-nt RNA, ends assumed
Added: 150 mM KCl
Reference: input library
Reading: higher = stronger binding
Endpoint: log2 enrichment
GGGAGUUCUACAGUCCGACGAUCUAACUUUAGAGGAGGAUCUGAUGGAUAUGGCAGUGGACGUGGAUUUGGGGAUGGCUAUAAUGGGUAUGGAGGAGGACCUGGAGGUGGCGAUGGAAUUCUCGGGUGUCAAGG: -0.743
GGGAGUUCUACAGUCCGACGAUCAUGCACUUGACAUAGUAGCAAAUUGGUUCUGAAUUAUGCAACUGUUUGCUAUUUAGUAAACUAGCAAAUGAUGCAUGUAUUUUGUUUUUCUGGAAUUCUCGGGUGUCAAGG: -0.167
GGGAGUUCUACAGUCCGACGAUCUCAAGUCCUGUGCUACACAUCGUAUGUACCGAAUCGGAGGUUUUUUUGGUUUGGAAAGUAUUAUGUUACGCCGUUCGGAUCUGCACUUCCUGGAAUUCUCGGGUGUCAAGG: -0.409
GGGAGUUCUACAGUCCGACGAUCCUCAAGUCCUGUGCUACACAUCGUAUGUACCGAAUCGGGGUGGGGUGGGGUGGAAAGUAUUAUGUUACGCCGUUCGGAUCUGCACUUCCAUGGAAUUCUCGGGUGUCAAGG: 0.226
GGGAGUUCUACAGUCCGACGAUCUCAAGUCCUGUGCUACACAUCGUAUGUACCGAAUCGGGGUUUGGUUUGGUUUGGGAAAGUAUUAUGUUACGCCGUUCGGAUCUGCACUUCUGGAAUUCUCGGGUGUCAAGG: -0.311
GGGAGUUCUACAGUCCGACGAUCUGGGAGGUGGAUUUUGUUUAUUUUUUUAGCUCAUUUCCAGGGGUGGGAAUUUUUUUUUAAUAUGUGUCAAGAAUAAAGUUGUUUUUGAAAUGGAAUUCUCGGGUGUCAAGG: 1.13
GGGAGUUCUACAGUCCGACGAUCAGUCCUGUGCUACACAUCGUAUGUACCGAAUCGGGAAAGGGUUUUUUUGGGUUUGGGAAAGUAUUAUGUUACGCCGUUCGGAUCUGCACUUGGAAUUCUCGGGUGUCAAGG: 0.282
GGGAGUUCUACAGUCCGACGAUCGCAGGAAGUAAAAACAAAUGGAAAUGCUUCGGAUAGUGGCAGGGGUGGGGGUUGCGAAGGAAAGGGUGGGAUGGGAGUGGGUAAAGAGUUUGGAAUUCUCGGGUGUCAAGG: 1.61
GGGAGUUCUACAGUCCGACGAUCAAGUCCUGUGCUACACAUCGUAUGUACCGAAUCGGGUGGGUUUGGGUUUUUUUGGGAAAGUAUUAUGUUACGCCGUUCGGAUCUGCACUUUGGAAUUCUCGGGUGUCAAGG: 0.487

Single results of other studies
PhoQ, residues 284 288 289 292 302 303 MLMVEA  fold induction (PhoP, residues 12 14 15 18 19 GQALL (Escherichia coli, UniProt P23836); Sort-seq, measured: YFP reporter; E. coli; PhoQ-PhoP variant library, added: 10 µM Mg2+; reference: high Mg2+ state, higher = stronger signaling): 20

A few entries again (block 3):
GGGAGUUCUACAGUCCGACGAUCGCAGGAAGUAAAAACAAAUGGAAAUGCUUCGGAUAGUGGCAGGGGUGGGGGUUGCGAAGGAAAGGGUGGGAUGGGAGUGGGUAAAGAGUUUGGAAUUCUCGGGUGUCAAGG: 1.61
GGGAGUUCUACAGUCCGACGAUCUGGGAGGUGGAUUUUGUUUAUUUUUUUAGCUCAUUUCCAGGGGUGGGAAUUUUUUUUUAAUAUGUGUCAAGAAUAAAGUUGUUUUUGAAAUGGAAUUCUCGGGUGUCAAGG: 1.13
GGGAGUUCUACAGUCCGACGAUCCUCAAGUCCUGUGCUACACAUCGUAUGUACCGAAUCGGGGUGGGGUGGGGUGGAAAGUAUUAUGUUACGCCGUUCGGAUCUGCACUUCCAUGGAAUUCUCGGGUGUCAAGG: 0.226
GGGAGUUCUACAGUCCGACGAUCUCAAGUCCUGUGCUACACAUCGUAUGUACCGAAUCGGGGUUUGGUUUGGUUUGGGAAAGUAUUAUGUUACGCCGUUCGGAUCUGCACUUCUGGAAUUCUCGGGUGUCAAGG: -0.311
